Measured values from different studies.
Compare with care: the assays were run in different laboratories.

Structure (SMILES) | assay | system | conditions | how to read | stability
CC[C@@H](C)[C@@H](N)C(=O)N[C@@H](CC(C)C)C(=O)N[C@@H](CCCNC(=N)N)C(=O)N[C@@H](Cc1c[nH]c2ccccc12)C(=O)N[C@@H](CO)C(=O)N[C@@H](CCCNC(=N)N)C(=O)N[C@@H](CCCCN)C(N)=O | – | human plasma | – | time remaining stable | > 8 h
CC[C@@H]([C@H](C)O)n1ncn(-c2ccc(N3CCN(c4ccc(OC[C@@H]5CO[C@@](Cn6cncn6)(c6ccc(F)cc6F)C5)cc4)CC3)cc2)c1=O | – | rat plasma | autosampler, freeze-thaw, short- and long-term storage | – | stable
O=C(N/N=C/c1ccccc1O)c1ccncc1 | – | rat plasma | 3 µM, 12 h, 5 °C, post-preparative | – | 91.8%
O=C(NCCN1CCCC1)c1cc(-c2ccc(CN3CCOCC3)cc2)nc2ccc(F)cc12 | – | simulated gastric fluid | – | – | > 4 h
CCC[C@H](N[C@@H](C)C(=O)N1[C@H](C(=O)O)C[C@@H]2CCCC[C@@H]21)C(=O)O | – | human plasma | 0.5 ng/mL, 30 h, 8 °C, autosampler, low QC | – | 97.3%
CNC(=O)c1ccc(-c2nn3c(Cc4ccc5ncccc5c4)cnc3[nH]c2=O)cc1F | – | human plasma | ambient | – | ≥ 24.7 h
COC(=O)/C=C/c1cc(C(=O)NCc2ccc(C)cc2)cc(-c2ccc3ncnn3c2)c1 | – | simulated intestinal fluid | 2 h | – | stable
O=C(NCCc1c[nH]c2ccccc12)C(=O)c1c[nH]c2ccc(F)cc12 | – | – | up to 48 h, pH 7.4 | – | stable
CN(CCC#N)C1CCN(C(=O)Cn2cc(NC(=O)c3cnn4cccnc34)c(-c3cc(Cl)ccc3OC(F)F)n2)CC1 | – | human plasma | 24 h, room temperature | – | stable
C=C(NC(=O)c1csc(-c2nc3c(cc2O[C@@H]2O[C@H](CO)[C@@H](O)[C@H](O)[C@H]2O)-c2nc(cs2)C(=O)N[C@@H]([C@@H](C)O)C(=O)N/C(=C\C)c2nc(cs2)C(=O)N[C@H]2C[C@H](O)C(=O)OCc4cccc5[nH]c(c(C)c45)C(=O)SC[C@H](NC(=O)c4csc2n4)c2nc-3cs2)n1)C(N)=O | HPLC | – | 24 h, pH 2.0–7.0, 25 °C | – | stable

For quick reference, copied from above:
Structure (SMILES) | assay | system | conditions | how to read | stability
CCC[C@H](N[C@@H](C)C(=O)N1[C@H](C(=O)O)C[C@@H]2CCCC[C@@H]21)C(=O)O | – | human plasma | 0.5 ng/mL, 30 h, 8 °C, autosampler, low QC | – | 97.3%
